# Measured values collected from several papers.
# Compare with care: the assays were run in different laboratories. ± gives the spread as reported.
# Cell line: MCF7
Compound,assay,conditions,how to read,quantity,value
CSC(=S)N/N=C(\C)c1ccc(S(=O)(=O)N2CCC(C)CC2)cc1,annexin V/PI,"concentration not given, 72 h, at IC50",,late apoptotic cells,8.88%
CC(=O)[O][Pd][c]1cc(C)ccc1N1N=C(C)C(C)(C)C1=O.CC(=O)[O][Pd][c]1cc(C)ccc1N1N=C(C)C(C)(C)C1=O,FLICA flow cytometry,"25 µM, 24 h",,caspase-8 active cells,39.4 ± 1.61%
C[C@@H]1CC[C@@H]([C@](O)(CNCc2cccc(F)c2)COCc2ccccc2)[C@H](OCc2ccccc2)C1,"cell growth or viability, MTT","10 µM, 72 h",,inhibition,95.3%
CCC(=CCc1c(O)cc2c(c1O)C(=O)CC(c1cccc(O)c1)O2)CC (stereo not drawn),"cytotoxicity, MTT","108.6 µM, 48 h",,growth inhibition,78.9%
COC(=O)c1cc(NC2=NC(=O)C(=Cc3ccc(C)cc3)S2)ccc1OC(C)=O,"GC-MS, refers to: Uracil",1 µM,baseline: DMSO,metabolite level,0.03 fold change
C[C@@H]1CC[C@@H]([C@](O)(COCc2ccccc2)Cn2cnc3ccccc32)[C@H](OCc2ccccc2)C1,"cell growth or viability, MTT","30 µM, 72 h",,inhibition,95.7%
CC(=O)[O][Pd][c]1ccccc1-n1nc(C)cc1C.CC(=O)[O][Pd][c]1ccccc1-n1nc(C)cc1C,FLICA flow cytometry,"25 µM, 24 h",,caspase-3/7 active cells,57.6 ± 3.64%
COC(=O)c1cc(NC2=NC(=O)C(=Cc3ccc(N(C)C)cc3)S2)ccc1OC(C)=O,"GC-MS, refers to: 2-Propenoic acid",1 µM,baseline: DMSO,metabolite level,0.22 fold change
O=C(CCl)c1ccccc1Nc1cccc(C(F)(F)F)c1,firefly luciferase reporter,"25 µM, 6 h",baseline: vehicle,TEAD reporter activity,61.8 ± 4.1%
CC(=O)[O][Pd][c]1ccccc1N1N=C(C)C(C)(C)C1=O.CC(=O)[O][Pd][c]1ccccc1N1N=C(C)C(C)(C)C1=O,FLICA flow cytometry,"25 µM, 24 h",,caspase-8 active cells,42.9 ± 3.68%
CC(C)C[C@@H](NC(=O)[C@H](C)NC(=O)CNC(=O)[C@@H](NC=O)C(C)C)C(=O)N[C@@H](C)C(=O)N[C@@H](C(=O)N[C@H](C(=O)N[C@@H](C(=O)N[C@@H](Cc1c[nH]c2ccccc12)C(=O)N[C@H](CC(C)C)C(=O)N[C@@H](Cc1c[nH]c2ccccc12)C(=O)N[C@H](CC(C)C)C(=O)N[C@@H](Cc1c[nH]c2ccccc12)C(=O)N[C@H](CC(C)C)C(=O)N[C@@H](Cc1c[nH]c2ccccc12)C(=O)NCCO)C(C)C)C(C)C)C(C)C,flow cytometry,"20 nM, 48 h",,cells in G2/M phase,24.7 ± 2.54%
CC(C)(C)C12CC(CN3CCN(C(c4ccccc4)c4ccc(Cl)cc4)CC3)(C1)C2 (stereo not drawn),"lipid droplet formation, Nile Red staining",72 h,,EC50,16.5 ± 0.56 µM
CCCC(CCC)C(=O)OCc1cn(-c2cc3ccccc3oc2=O)nn1,NCI60 single-dose screen,10 µM,,growth percentage,889%
Cc1c(COc2cc(OCc3cccc(C#N)c3)c(CNC(CO)(CO)CO)cc2Cl)cccc1-c1cccc(OCCCCCC(=O)NO)c1,annexin V-FITC/PI flow cytometry,"10 µM, 48 h, early plus late apoptosis",,apoptotic cells,65.5%
CSC(=NN=C(C)c1ccc(S(=O)(=O)N2CCC(C)CC2)cc1)N(C)C,flow cytometry,"4.29 µM (IC50), 72 h",,cells in S phase,30.2%
C[C@@H]1CC[C@@H]([C@](O)(CNCc2ccc(F)cc2)COCc2ccccc2)[C@H](OCc2ccccc2)C1,"cell growth or viability, MTT","10 µM, 72 h",,inhibition,30.2%
CCC(=CCc1c(O)cc2c(c1O)C(=O)CC(c1ccccc1O)O2)CC (stereo not drawn),"cytotoxicity, MTT","6.786 µM, 48 h",,growth inhibition,-6.25%
CCCCCCCCCCCCCC(=S)NCCCC[C@H](NS(C)(=O)=O)C(=O)N[C@H](C)C(=O)N[C@@H](CCCNC(=N)N)C(N)=O,"cell growth or viability, MTT",72 h,,EC50,29 to 55 µM
CC(=NN=c1sc(C(=O)c2ccccc2)nn1-c1ccccc1)c1ccc(S(=O)(=O)N2CCC(C)CC2)cc1,flow cytometry,"4.29 µM (IC50), 72 h",,cells in S phase,33.1%
Oc1ccnc(-c2cc(O)ccn2)c1.[Cl-].[Cl-].[Ru+2].c1ccc(-c2ccnc3c2ccc2c(-c4ccccc4)ccnc23)cc1.c1ccc(-c2ccnc3c2ccc2c(-c4ccccc4)ccnc23)cc1,cell viability,,baseline: dark EC50 over light EC50,phototoxicity index,> 200
NC(=O)c1ccc(-c2ccccc2Cl)c2c3c([nH]c12)CCC(N)C3 (stereo not drawn),cell growth or viability,,,IC50,0.026 µM
COc1ccc(C2CC(=O)c3c(cc(O)c(CC=C(C)C)c3O)O2)cc1 (stereo not drawn),"cytotoxicity, MTT","28.22 µM, 48 h",,growth inhibition,1.64%
COc1ccc(CNC[C@](O)(COCc2ccccc2)[C@@H]2CC[C@@H](C)C[C@H]2OCc2ccccc2)cc1,"cell growth or viability, MTT","10 µM, 72 h",,inhibition,84.1%
C/C(=N\N=c1/[nH]c(-c2ccccc2)cs1)c1c(O)c2ccccc2oc1=O,"cell growth, MTT",,baseline: IC50 BJ-1 over MCF7,selectivity index,> 2.87
COc1cccc(CNC[C@](O)(COCc2ccccc2)[C@@H]2CC[C@@H](C)C[C@H]2OCc2ccccc2)c1,"cell growth or viability, MTT","10 µM, 72 h",,inhibition,95.7%
COc1cc(/C=C/C(=O)/C=C(O)/C=C/c2ccc(OCC(=O)N3CCOCCOCCOCCOCCOCC3)c(OC)c2)ccc1OCC(=O)N1CCOCCOCCOCCOCCOCC1,"cell growth or viability, SRB",25 µM,,inhibition,98.5%
C[C@@H]1CC[C@@H]([C@@](O)(CNCc2ccccc2F)COCc2ccccc2)[C@H](OCc2ccccc2)C1,"cell growth or viability, MTT","30 µM, 72 h",,inhibition,91.9%
C=CCc1c(O)cc2c(c1O)C(=O)CC(c1ccc(O)cc1)O2 (stereo not drawn),"cytotoxicity, MTT","3.202 µM, 48 h",,growth inhibition,-5.94%
COc1ccc(CNC[C@@](O)(COCc2ccc(OC)cc2)[C@@H]2CC[C@@H](C)C[C@H]2OCc2ccc(OC)cc2)cc1,"cell growth or viability, MTT","10 µM, 72 h",,inhibition,96.5%
FC(F)(F)C1(c2ccc(CN3CCN(C(c4ccccc4)c4ccc(Cl)cc4)CC3)cc2)CCC1 (stereo not drawn),,72 h,,EC50,14.7 ± 0.39 µM
CCC(=CCc1c(O)cc2c(c1O)C(=O)CC(c1ccc(O)cc1)O2)CC (stereo not drawn),"cytotoxicity, MTT","13.57 µM, 48 h",,growth inhibition,41.4%
C[C@@H]1Cc2c([nH]c3ccccc23)[C@@H](c2c(F)cc(/C=C/C(=O)O)cc2F)N1C12CC(C1)C2,"RNA-seq, refers to: CT62 mRNA","1 µM, 24 h, E2-induced gene",baseline: DMSO vehicle,log2 fold change,-3.7
CCC(=CCc1c(O)cc2c(c1O)C(=O)CC(c1ccc(OC)c(O)c1)O2)CC (stereo not drawn),"cytotoxicity, MTT","2.51 µM, 48 h",,growth inhibition,4.26%
CC[C@H]([C@@H](C)c1ccc(O)cc1)[C@@H](CC)c1ccc(O)cc1,"cell growth or viability, ATP luminescence",5 days,,EC50,0.0034 µM
COc1ccccc1CNC[C@](O)(COCc1ccccc1)[C@@H]1CC[C@@H](C)C[C@H]1OCc1ccccc1,"cell growth or viability, MTT","10 µM, 72 h",,inhibition,84.9%
C/C(=N\NC(N)=S)c1c(O)c2ccccc2oc1=O,"cell growth, MTT",,baseline: IC50 BJ-1 over MCF7,selectivity index,> 12.3
